Published values gathered from unrelated publications.
Protocols differ between the studies behind these lines. pIC50: −log10 of the molar value.
Cell line: T47D

SMILES	test	setting	scale	measurement	result
O=C1Nc2ccccc2/C1=N\Nc1nnc2n1N=C(c1ccc(Cl)cc1)CS2	cell growth or viability, SRB	10 µM	–	inhibition	29%
CC/C=C\C/C=C\C/C=C\C/C=C\C/C=C\C/C=C\CCC(=O)Nc1ccn(C2OC(CO)C(O)C2(F)F)c(=O)n1 (stereo not shown)	–	–	–	total growth inhibition concentration	17.6 µM
COc1ccc(C2=NN(C3=NC(=O)C(=Cc4ccc(O)cc4)S3)C(c3ccc(F)cc3)C2)cc1 (stereo not shown)	PI flow cytometry	concentration not given, 24 h	–	cells in %Sub-G1 phase	31.4%
CCN1CCN(Cc2ccc(C(=O)Nc3ccc(C)c(NCc4cnc5[nH]ccc5c4OC)c3)cc2C(F)(F)F)CC1	cell growth or viability	48 h	–	GI50	1.11 µM
CCC(=C(c1ccc(Cl)cc1)c1ccc(OCCCN(C)C)cc1)c1ccc(OC)cc1	cell growth or viability, SRB	–	–	GI50	3.75 µM
CCCCCCCCCCCCn1c(-c2cccnc2)nc(-c2ccc(C)cc2)c1-c1ccc(C)cc1	cell growth or viability, SRB	48 h	–	pIC50	< 4.00
CC(=O)OC[C@H]1O[C@@H](Sc2sc(C(=O)c3ccc(Br)cc3)c(N)c2-c2nc3ccccc3s2)[C@H](OC(C)=O)[C@@H](OC(C)=O)[C@@H]1OC(C)=O	SRB	10 µM, 48 h	relative to: untreated	growth	71.5%
COc1ccc(C=C2SC(N3N=C(c4cccs4)CC3c3ccc(F)cc3)=NC2=O)cc1 (stereo not shown)	PI flow cytometry	concentration not given, 24 h	–	cells in %S phase	29%
CCCCCCCCCCn1c(-c2cccnc2)nc(-c2ccc(C)cc2)c1-c1ccc(C)cc1	cell growth or viability, SRB	24 h	–	pIC50	< 4.00
COc1ccc(C2=Nn3c(NN=C4C(=O)N(Cc5ccccc5)c5ccc(Cl)cc54)nnc3SC2)cc1	cell growth or viability, SRB	10 µM	–	inhibition	29%
CC(=O)OC[C@H]1O[C@@H](Sc2sc(C(=O)c3ccc(C)cc3)c(N)c2-c2nc3ccccc3s2)[C@H](OC(C)=O)[C@@H](OC(C)=O)[C@@H]1OC(C)=O	SRB	10 µM, 48 h	relative to: untreated	growth	75.4%
CCCCCCCCCCCCCCCCn1c(-c2cccnc2)nc(-c2ccc(C)cc2)c1-c1ccc(C)cc1	cell growth or viability, SRB	48 h	–	pIC50	< 4.00
COc1ccc(C2=Nn3c(NN=C4C(=O)N(C)c5ccc(Br)cc54)nnc3SC2)cc1	cell growth or viability, SRB	10 µM	–	inhibition	18%

Repeated from above:
SMILES	test	setting	scale	measurement	result
O=C1Nc2ccccc2/C1=N\Nc1nnc2n1N=C(c1ccc(Cl)cc1)CS2	cell growth or viability, SRB	10 µM	–	inhibition	29%
COc1ccc(C2=Nn3c(NN=C4C(=O)N(C)c5ccc(Br)cc54)nnc3SC2)cc1	cell growth or viability, SRB	10 µM	–	inhibition	18%
